Measurements pooled from the literature.
Each line is one published result; not all experiments were run side by side. Numbers after ± are the reported error.
UniProt P49116, sequence (whole entry, looked up): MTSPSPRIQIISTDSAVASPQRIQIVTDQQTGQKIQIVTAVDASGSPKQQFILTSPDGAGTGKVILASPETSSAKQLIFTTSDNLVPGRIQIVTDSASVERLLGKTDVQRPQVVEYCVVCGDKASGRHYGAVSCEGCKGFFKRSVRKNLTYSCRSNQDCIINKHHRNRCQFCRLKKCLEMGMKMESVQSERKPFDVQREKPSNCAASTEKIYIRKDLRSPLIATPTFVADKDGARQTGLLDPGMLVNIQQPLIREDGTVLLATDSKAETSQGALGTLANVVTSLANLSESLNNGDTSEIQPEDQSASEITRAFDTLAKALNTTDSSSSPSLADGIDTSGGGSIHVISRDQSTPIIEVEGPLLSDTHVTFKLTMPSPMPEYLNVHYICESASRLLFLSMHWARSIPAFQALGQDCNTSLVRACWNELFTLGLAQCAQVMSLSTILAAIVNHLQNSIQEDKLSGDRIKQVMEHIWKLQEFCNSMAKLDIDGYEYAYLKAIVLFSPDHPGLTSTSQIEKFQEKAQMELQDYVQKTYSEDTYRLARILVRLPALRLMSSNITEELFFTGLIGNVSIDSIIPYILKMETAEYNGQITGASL

With `C[C@H]1[C@H](NC(=O)/C(=N\OC(C)(C)C(=O)O)c2csc(N)n2)C(=O)N1S(=O)(=O)O` the amount permeated was 1.16 nmol (starch gel membrane permeability; Gram-negative envelope surrogate; 200 µM, 10 min, pH 7.4).
With `COc1c(O)cc(C(=O)O)cc1OS(=O)(=O)O` the plasma concentration was 222 nM (human plasma; median).
Under “R/S enantiomer ratio”, `COc1ccc2[nH]c([S+]([O-])Cc3ncc(C)c(OC)c3C)nc2c1` (stereo not shown) is recorded as 1.03 (human male, dried plasma spots; oral, dose not given, 2 h, with: fluvoxamine and voriconazole).
The Diarrhea incidence of `C[C@@H]1COCCN1c1cc(C2([S@](C)(=N)=O)CC2)nc(-c2cc[nH]c3nccc2-3)n1` is reported as 0% (Japanese advanced solid tumour patients; oral, 160 mg twice daily, any grade).
`CCc1cc(OC)c2nccc(N3CCc4c(cc(Cn5ccnc5)cc4-c4cn(C)nc4C(F)(F)F)C3=O)c2c1`: “AUC extrapolated fraction” 0.9% (Sprague Dawley rat, male, plasma; oral, 50 mg/kg).
The Cmax, metabolite of `CC(F)(F)c1nc2nc(CO)cc(Nc3ccc(S(F)(F)(F)(F)F)cc3)n2n1` is reported as 1350 ng/mL (LC-MS/MS; malaria patients, plasma; oral, 800 mg of parent drug).
`O=C(NCc1ccccc1)c1c(/N=C/c2c(O)ccc3ccccc23)sc2c1CCCC2` has a viability of 106% (OCI-Ly1; 1 µM, 120 h).
With `N#Cc1ccc2c(c1)[C@H]1CCCN(C(=O)c3ccc4[nH]cnc4c3)[C@H]1C2` the exposure increase was ~9% (human, plasma; oral, 240 mg, steady state, with: background metformin).
`CC[C@H](C)[C@H](NC(=O)[C@H](Cc1ccccc1)NC(=O)[C@H](CC(=O)O)NC(=O)[C@H](CCCNC(=N)N)NC(=O)[C@H](C)NC(=O)[C@H](C)NC(=O)[C@H](CC(C)C)NC(=O)[C@H](CC(N)=O)NC(=O)[C@H](CC(=O)O)NC(=O)[C@H](CC(C)C)NC(=O)[C@@H](NC(=O)[C@@H](NC(=O)[C@H](CC(N)=O)NC(=O)[C@H](CCSC)NC(=O)[C@H](CCC(=O)O)NC(=O)[C@H](CC(=O)O)NC(=O)[C@H](CO)NC(=O)[C@H](Cc1ccccc1)NC(=O)[C@H](CO)NC(=O)CNC(=O)[C@H](CC(=O)O)NC(=O)CNC(=O)[C@@H](N)Cc1c[nH]cn1)[C@@H](C)O)[C@@H](C)CC)C(=O)N[C@@H](CC(N)=O)C(=O)N[C@@H](Cc1c[nH]c2ccccc12)C(=O)N[C@@H](CC(C)C)C(=O)N[C@H](C(=O)N[C@@H](CCC(N)=O)C(=O)N[C@H](C(=O)N[C@@H](CCCCN)C(=O)N[C@H](C(=O)N[C@H](C(=O)N[C@@H](CC(=O)O)C(=O)O)[C@@H](C)O)[C@@H](C)CC)[C@@H](C)O)[C@@H](C)CC`: “typical absorption rate constant” 0.33 h⁻¹ (population PK sensitivity analysis; human; maturation function).
For `O=c1oc2cc(O)ccc2c2cc(O)ccc12`, the plasma concentration was 1110 nM (human plasma; mean).
`[18F]c1ccc(-c2ccc3c(c2)[nH]c2ccncc23)cn1` has an SUV of 1.71 ± 0.647 (ex vivo biodistribution; B6SJL mouse, normal, lungs; intravenous, 30 min).
`O=C(N[C@H](Cc1c[nH]c2ccccc12)C(=O)Nc1ccncc1)c1ccc(-c2ccc(F)c(Cl)c2)cc1F` gave a concentration of 510 nM (Swiss Webster mouse, female, muscle; oral, 50 mg/kg, 2 h, 20% HPβCD vehicle).
For `CN1C(=O)[C@@H](NC(=O)c2nnc(Cc3ccccc3)[nH]2)COc2cccnc21`, “participants with any serious TEAE” read 0% (phase I single ascending dose; human, male and female; oral, 10 mg, fasted).
The viability of `CCC(=O)N1CCOc2c(cc(-c3ccc(OC)c(OC)c3)cc2OC[C@H]2CCCN(C)C2)C1` is reported as 82.6% (OCI-Ly1; 1 µM, 120 h).
The Kd of `COc1cnc(NS(=O)(=O)c2ccc(N)cc2)nc1` is reported as 0.0111 nM (Nuclear receptor subfamily 2 group C member 2, ligand-binding domain (Homo sapiens, UniProt P49116); SPR imaging).
Under “subjects with TEAE”, `CC(C)(C(=O)N1CCOc2c(C#N)cncc2C1)C(F)F` is recorded as 0% (item: medical device site dermatitis; human, both sexes; oral, 20 mg twice daily, 14 days, multiple ascending dose).
With `C[C@@H](NC(=O)N1C(=O)[C@H](Cc2ccnc(N)c2)[C@H]1C(=O)O)C1CCCCC1` the t1/2 was 1.43 h (UPLC-MS/MS; healthy adult Chinese volunteers, plasma; continuous intravenous infusion, 1.5 mg/kg/h, day 6 of 5-day infusion, mean).
With `O=C(O)Cc1ccc(O)c(O)c1` the plasma concentration was 1370 nM (human plasma; median).
`N#Cc1ccc2c(c1)[C@H]1CCCN(C(=O)c3ccc4[nH]cnc4c3)[C@H]1C2`: “mean ACTH level” 5.8 pmol/L (human; 160 mg, day 15).
For `CN[C@H](CC(C)C)C(=O)N[C@H]1C(=O)N[C@@H](CC(N)=O)C(=O)N[C@H]2C(=O)N[C@H]3C(=O)N[C@H](C(=O)N[C@H](C(=O)O)c4cc(O)cc(O)c4-c4cc3ccc4O)[C@H](O)c3ccc(c(Cl)c3)Oc3cc2cc(c3O[C@@H]2O[C@H](CO)[C@@H](O)[C@H](O)[C@H]2O[C@H]2C[C@](C)(N)[C@H](O)[C@H](C)O2)Oc2ccc(cc2Cl)[C@H]1O`, the amount permeated was 0.5 nmol (starch gel membrane permeability; Gram-negative envelope surrogate; 200 µM, 30 min, pH 7.4).
With `C[C@@]1(c2cc(NC(=O)c3ccc(C#N)cn3)ccc2F)C=CSC(N)=N1` the dose-normalised AUC(0-last) was 100 ng·h/mL (elderly humans, both sexes, plasma; oral, 10 mg single dose).
`Nc1nc2c(nc([N+](=O)[O-])n2[C@@H]2O[C@H](CO)[C@@H](O)[C@H]2O)c(=O)[nH]1`: “nucleoside remaining fraction” 0.469 (depurination, RP-HPLC; citrate-phosphate buffer 0.5 mM; 355 min, pH 2, 37 °C).

For quick reference, copied from above:
With `N#Cc1ccc2c(c1)[C@H]1CCCN(C(=O)c3ccc4[nH]cnc4c3)[C@H]1C2` the exposure increase was ~9% (human, plasma; oral, 240 mg, steady state, with: background metformin).
